Experimental data gathered from unrelated publications.
Each numbered part is a random draw from the data of one study; scales do not carry over between parts. “And” joins repeats or separate records; there may be more than shown.
Sequence of UniProt P41595 (whole entry, looked up): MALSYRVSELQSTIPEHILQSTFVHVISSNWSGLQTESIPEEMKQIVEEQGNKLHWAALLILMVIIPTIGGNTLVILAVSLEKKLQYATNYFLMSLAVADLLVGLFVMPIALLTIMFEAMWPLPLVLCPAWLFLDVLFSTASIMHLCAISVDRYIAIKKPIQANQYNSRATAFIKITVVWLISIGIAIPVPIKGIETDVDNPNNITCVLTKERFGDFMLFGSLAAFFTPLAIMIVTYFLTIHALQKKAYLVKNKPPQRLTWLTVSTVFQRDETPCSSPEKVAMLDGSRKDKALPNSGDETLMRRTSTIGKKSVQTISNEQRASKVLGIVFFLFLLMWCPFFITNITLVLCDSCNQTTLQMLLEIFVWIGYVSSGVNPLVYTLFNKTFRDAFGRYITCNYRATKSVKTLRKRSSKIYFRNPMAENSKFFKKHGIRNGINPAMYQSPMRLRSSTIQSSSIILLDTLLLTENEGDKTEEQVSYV
Sequence of UniProt P00519 (whole entry, unmodified, looked up): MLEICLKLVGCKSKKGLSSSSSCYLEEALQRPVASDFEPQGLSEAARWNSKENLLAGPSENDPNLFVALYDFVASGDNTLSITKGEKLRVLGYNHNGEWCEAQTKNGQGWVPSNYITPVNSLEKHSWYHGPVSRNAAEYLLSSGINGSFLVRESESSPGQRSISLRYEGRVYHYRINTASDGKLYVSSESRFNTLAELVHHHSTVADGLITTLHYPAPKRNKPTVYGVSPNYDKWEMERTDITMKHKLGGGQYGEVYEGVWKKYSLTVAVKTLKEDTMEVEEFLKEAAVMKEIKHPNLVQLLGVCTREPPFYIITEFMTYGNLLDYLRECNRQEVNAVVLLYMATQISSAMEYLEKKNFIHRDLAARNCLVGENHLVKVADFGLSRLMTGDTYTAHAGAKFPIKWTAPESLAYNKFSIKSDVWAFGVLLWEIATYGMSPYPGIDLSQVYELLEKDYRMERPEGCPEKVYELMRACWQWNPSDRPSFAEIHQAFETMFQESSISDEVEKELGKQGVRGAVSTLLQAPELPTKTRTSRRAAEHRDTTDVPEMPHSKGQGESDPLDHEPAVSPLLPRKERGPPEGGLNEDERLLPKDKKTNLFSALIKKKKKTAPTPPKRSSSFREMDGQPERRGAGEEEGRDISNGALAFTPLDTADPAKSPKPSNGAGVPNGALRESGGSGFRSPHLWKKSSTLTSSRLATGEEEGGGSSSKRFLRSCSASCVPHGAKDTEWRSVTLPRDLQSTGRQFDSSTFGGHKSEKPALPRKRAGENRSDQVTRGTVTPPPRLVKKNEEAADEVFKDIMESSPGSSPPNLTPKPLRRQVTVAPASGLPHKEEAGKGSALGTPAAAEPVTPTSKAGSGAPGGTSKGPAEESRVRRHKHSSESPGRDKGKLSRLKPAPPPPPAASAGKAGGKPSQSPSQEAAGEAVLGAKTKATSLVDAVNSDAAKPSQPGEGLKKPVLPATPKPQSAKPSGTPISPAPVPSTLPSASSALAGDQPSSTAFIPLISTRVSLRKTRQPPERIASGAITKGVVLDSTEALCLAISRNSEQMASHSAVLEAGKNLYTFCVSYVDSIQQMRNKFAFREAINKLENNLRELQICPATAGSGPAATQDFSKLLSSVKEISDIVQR

Set 1
Cell line: mouse MPNST tumor cells
Method: high-content immunofluorescence imaging
Refers to: nuclear SOX9
Tested at: 10 µM
Time: 12 h
Setting: mean of 2 replicates
Relative to: DMSO control
Direction: higher = more nuclear SOX9
`NC12CC3CC(CC(C3)C1)C2`: “nuclear SOX9 intensity” 93 % of DMSO and 86 % of DMSO.
Under “nuclear SOX9 intensity”, `CC[S+]([O-])c1nc(-c2cccc(OCc3ccccc3)c2)cc(C(F)(F)F)n1` (stereo not drawn) is recorded as 120 % of DMSO.
`C=CC(=O)N1C[C@H](Nc2ncnc3[nH]ccc23)CC[C@@H]1C`: “nuclear SOX9 intensity” 89.9 % of DMSO.
`O=C(O)COC(=O)Cc1ccccc1Nc1c(Cl)cccc1Cl`: “nuclear SOX9 intensity” 94.6 % of DMSO.
`COCC[n+]1c2c(n(Cc3cnccn3)c1C)C(=O)c1ccccc1C2=O`: “nuclear SOX9 intensity” 107 % of DMSO.
`Cn1cc(-c2ccc3c(c2)CCN3C(=O)Cc2cccc(C(F)(F)F)c2)c2c(N)ncnc21`: “nuclear SOX9 intensity” 100 % of DMSO.
`NC1CCN(c2c(F)cc3c(=O)c(C(=O)O)cn(C4CC4)c3c2Cl)C1` (stereo not drawn) — result for “nuclear SOX9 intensity”: 88.5 % of DMSO.
`N[C@@H](C(=O)N[C@@H]1C(=O)N2C(C(=O)O)=C(Cl)CS[C@H]12)c1ccccc1` — result for “nuclear SOX9 intensity”: 98.7 % of DMSO.
For `CC(C)C(=O)c1c(C(C)C)nn2ccccc12`, “nuclear SOX9 intensity” read 125 % of DMSO and 101 % of DMSO.
For `CC[C@@H]1Cn2c(c3nc(-c4cc(Cl)cc(Cl)c4Cl)nc-3n(C)c2=O)N1`, “nuclear SOX9 intensity” read 91 % of DMSO.
Under “nuclear SOX9 intensity”, `Cc1c(-c2ccccc2)oc2c(C(=O)OCCN3CCCCC3)cccc2c1=O` is recorded as 110 % of DMSO.

Set 2
Target: Calcium/calmodulin-dependent protein kinase type II subunit alpha (CAMK2A, Homo sapiens, UniProt Q9UQM7)
Sequence of UniProt Q9UQM7 (whole entry, looked up): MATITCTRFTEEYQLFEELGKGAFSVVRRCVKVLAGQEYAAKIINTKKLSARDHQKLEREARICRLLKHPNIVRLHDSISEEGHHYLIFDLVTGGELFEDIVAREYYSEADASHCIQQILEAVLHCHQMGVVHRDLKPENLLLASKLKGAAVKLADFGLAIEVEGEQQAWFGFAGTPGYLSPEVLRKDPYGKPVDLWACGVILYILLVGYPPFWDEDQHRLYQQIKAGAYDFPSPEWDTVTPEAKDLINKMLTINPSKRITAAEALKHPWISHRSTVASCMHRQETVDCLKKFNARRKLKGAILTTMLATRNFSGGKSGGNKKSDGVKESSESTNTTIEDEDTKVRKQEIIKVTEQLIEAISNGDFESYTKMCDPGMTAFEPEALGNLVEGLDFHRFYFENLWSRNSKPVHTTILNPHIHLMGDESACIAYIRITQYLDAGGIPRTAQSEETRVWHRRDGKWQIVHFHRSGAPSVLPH
Observed: enzyme activity
Mode: inhibitor
Tested at: 10 µM
With `NC(=O)c1ccn(-c2cnc(NC[C@]3(c4ncccc4F)C[C@H](F)C3)nc2)c1` the inhibition was -5%.
The inhibition of `Cc1cc2c(s1)Nc1ccccc1N=C2N1CCN(C)CC1` is reported as -1%.
`Cc1nc(Nc2ccc(F)cc2)nc(N2CCc3ccccc3C2C)c1C` (stereo not drawn) has an inhibition of 5%.
The inhibition of `C[N+](C)(C)CCO` is reported as -6%.
With `CC(C)(O[C@@H]1O[C@H](CO)[C@@H](O)[C@H](O)[C@H]1O)[C@H]1Cc2cc3ccc(=O)oc3cc2O1` the inhibition was -13%.

Set 3
Species: human
Medium: microsomes or S9
Tested at: 2 µM
Time: 0.5 h
`CC1CCC(NS(=O)(=O)CC(=O)N2CCOCC2(C)C)CC1` (stereo not drawn) gave a remaining compound of over 99%.
The remaining compound of `CC(C)c1nc(NC(=O)c2cc(-c3ccco3)n[nH]2)n[nH]1` is reported as 89.1%.
`O=C(Nc1ccc(-c2nc3ccccc3[nH]2)cc1)c1ccnc(-n2cnnc2)c1` has a remaining compound of 61.3%.
`O=C(C1CC(=O)N(c2n[nH]c3cc(Br)ccc23)C1)N1CCCC1` (stereo not drawn) gave a remaining compound of over 99%.
For `Cc1cc2nc(CN(C)c3ccccc3)cc(=O)n2o1`, the remaining compound was 82.4%.
`O=c1c(I)coc2cc(OC3CCCCO3)ccc12` (stereo not drawn) gave a remaining compound of 66.9%.
`c1ccc2c(Sc3nccc4ccccc34)nccc2c1` has a remaining compound of 4.83%.
The remaining compound of `C=CCn1c(CN2C(=O)c3cccc4cccc(c34)C2=O)nnc1SCC(=O)OCC` is reported as 93.5%.
For `O=S(=O)(c1ccc2c(c1)OCCO2)n1cnc2ccccc21`, the remaining compound was 0.195%.
`Cc1c(-c2nnc(Cc3ccccc3)o2)nnn1-c1ccc(C(C)C)cc1` gave a remaining compound of 75.1%.
`O=C1C2C3C=CC(O3)C2C(=O)N1Nc1ccccc1` (stereo not drawn) has a remaining compound of 39%.
The remaining compound of `COc1ccc(C(=O)N2CCC(Cc3noc(C4CCOCC4)n3)C2)cc1F` (stereo not drawn) is reported as 88.3%.
For `COc1ccc(CN2CCC(C(=O)N3CCN(c4cccc(C)c4C)CC3)CC2)c(OC)c1`, the remaining compound was 26.7%.

Set 4
Target: BDNF/NT-3 growth factors receptor (NTRK2, Homo sapiens, UniProt Q16620)
Sequence of UniProt Q16620 (whole entry, looked up): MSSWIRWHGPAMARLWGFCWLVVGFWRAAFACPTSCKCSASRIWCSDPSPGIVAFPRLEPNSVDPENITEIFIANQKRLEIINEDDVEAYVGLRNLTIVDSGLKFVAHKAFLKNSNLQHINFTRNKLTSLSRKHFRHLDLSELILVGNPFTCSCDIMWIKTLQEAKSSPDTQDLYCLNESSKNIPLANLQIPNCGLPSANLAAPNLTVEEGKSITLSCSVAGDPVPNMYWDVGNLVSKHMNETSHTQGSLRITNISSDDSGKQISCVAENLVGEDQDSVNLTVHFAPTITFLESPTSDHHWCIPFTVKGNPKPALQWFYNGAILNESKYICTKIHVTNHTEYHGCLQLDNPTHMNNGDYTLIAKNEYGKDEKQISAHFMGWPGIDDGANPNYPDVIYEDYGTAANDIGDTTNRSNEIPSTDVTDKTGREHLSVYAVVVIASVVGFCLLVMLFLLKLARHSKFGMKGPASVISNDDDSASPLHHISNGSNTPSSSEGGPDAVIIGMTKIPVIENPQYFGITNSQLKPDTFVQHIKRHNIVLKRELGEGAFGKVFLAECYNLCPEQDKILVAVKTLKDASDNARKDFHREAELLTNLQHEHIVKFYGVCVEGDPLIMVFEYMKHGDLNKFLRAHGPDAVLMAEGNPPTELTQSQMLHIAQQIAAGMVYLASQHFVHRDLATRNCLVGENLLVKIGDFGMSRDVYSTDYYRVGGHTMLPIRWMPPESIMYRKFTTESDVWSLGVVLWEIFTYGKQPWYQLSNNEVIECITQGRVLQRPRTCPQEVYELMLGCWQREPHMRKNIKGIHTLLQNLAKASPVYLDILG
Observed: enzyme activity
Mode: inhibitor
Tested at: 0.5 µM
Relative to: control
The remaining activity of `COc1cc2c(cc1OC)-c1[nH]nc(Nc3cccc(F)c3)c1C2` is reported as 102%.
For `CCN(CC)C(=O)c1ccc(Nc2nc(OCC3CCCCC3)c3[nH]cnc3n2)cc1`, the remaining activity was 54.3%.
The remaining activity of `Cc1nc2cc3nc(-c4cccs4)cnc3cc2n1C` is reported as 64.7%.
The remaining activity of `O=c1cc(-c2cccc3c2Sc2ccccc2S3)oc(N2CCOCC2)c1` is reported as 99.1%.
The remaining activity of `COc1cc2ncnc(Nc3ccc(O)c(Br)c3)c2cc1OC` is reported as 94.8%.
`CCOc1nc(NC(=O)Cc2cc(OC)ccc2OC)cc(N)c1C#N` has a remaining activity of 102%.
For `N#C/C(=C\c1ccc(O)c(O)c1)C(=O)NCc1ccccc1`, the remaining activity was 94.5%.
`O=C(NC(NC(=S)Nc1ccc(F)c([N+](=O)[O-])c1)C(Cl)(Cl)Cl)C(c1ccccc1)c1ccccc1` (stereo not drawn) gave a remaining activity of 97.7%.
`Cn1nc2c3c(cccc31)C(=O)c1ccccc1-2` gave a remaining activity of 84%.
`N#Cc1c(NC(=O)c2cccc3ccccc23)sc2c1CCCC2` has a remaining activity of 100%.
`CN([C@@H](Cc1ccc(OS(=O)(=O)c2cccc3cnccc23)cc1)C(=O)N1CCN(c2ccccc2)CC1)S(=O)(=O)c1cccc2cnccc12` gave a remaining activity of 103%.
`Cc1cn(-c2cc(NC(=O)c3ccc(C)c(Nc4nccc(-c5cccnc5)n4)c3)cc(C(F)(F)F)c2)cn1` gave a remaining activity of 85.4%.
The remaining activity of `c1ccc(-c2cnc(Nc3ccc(OCCN4CCCC4)cc3)s2)cc1` is reported as 50.4%.
`O=C1C(Cl)=C(N2C(=O)CCC2=O)C(=O)c2ccccc21` gave a remaining activity of 104%.
`Nc1cccc(-c2cc3c(Oc4cccc(O)c4)ncnc3[nH]2)c1` has a remaining activity of 95.5%.
`CN(C)C[C@H]1CCn2c(c(C3=C(c4cn(C)c5ccccc45)C(=O)NC3=O)c3ccccc32)C1` gave a remaining activity of 102%.
For `c1ccc(-c2[nH]ncc2-c2ccnc3ccccc23)nc1`, the remaining activity was 112%.
The remaining activity of `CCN(CC)CCNC(=O)c1c(C)[nH]c(/C=C2\C(=O)Nc3ccc(F)cc32)c1C` is reported as 9.78%.
`O=C1c2ccccc2-c2n[nH]c3cccc1c23` gave a remaining activity of 48.2%.
`C[C@@H]1CCN(C(=O)CC#N)C[C@@H]1N(C)c1ncnc2[nH]ccc12` has a remaining activity of 97.1%.
`Ic1cccc(CSc2nnc(-c3ccncc3)o2)c1` gave a remaining activity of 91.4%.
`COc1cc2ncnc(Nc3cccc(Cl)c3)c2cc1OC` gave a remaining activity of 93.3%.
The remaining activity of `CCN(CC)CCNC(=O)c1c(C)[nH]c(/C=C2\C(=O)Nc3ccc(Cl)cc32)c1C` is reported as 8.43%.
The remaining activity of `Cc1cc2ncc(-c3ccccc3)nc2cc1C` is reported as 103%.

Mixed results
With `C[C@H](NC(=O)Nc1cc2[nH]ncc2c(CO)n1)c1ccccn1` the remaining binding was 81.4% (Tyrosine-protein kinase ABL1, phosphorylated (ABL1, Homo sapiens, UniProt P00519, E255K); binding, competition with immobilised ligand; 1 µM).
The viability of `CNC(=O)c1c(C)oc2cc(Oc3ncnc4cc(OC)c(OC)cc34)ccc12` is reported as 95.1% (A-375; 100 µM, 60 h).
For `Cc1nc(Cc2cccc(C(F)(F)F)c2)sc1-c1ccc(C(N)=O)nc1`, the inhibition was 33.7% (5-hydroxytryptamine receptor 2B (HTR2B, Homo sapiens, UniProt P41595); binding, radioligand binding; 10 µM).
With `CC(=O)Nc1ccccc1` the viability was 107% (A-375; 100 µM, 60 h).

For quick reference, copied from above (set 3):
The remaining compound of `CC(C)c1nc(NC(=O)c2cc(-c3ccco3)n[nH]2)n[nH]1` is reported as 89.1%.
`O=C(Nc1ccc(-c2nc3ccccc3[nH]2)cc1)c1ccnc(-n2cnnc2)c1` has a remaining compound of 61.3%.
`O=C(C1CC(=O)N(c2n[nH]c3cc(Br)ccc23)C1)N1CCCC1` (stereo not drawn) gave a remaining compound of over 99%.
For `Cc1cc2nc(CN(C)c3ccccc3)cc(=O)n2o1`, the remaining compound was 82.4%.
`O=c1c(I)coc2cc(OC3CCCCO3)ccc12` (stereo not drawn) gave a remaining compound of 66.9%.
`c1ccc2c(Sc3nccc4ccccc34)nccc2c1` has a remaining compound of 4.83%.
The remaining compound of `C=CCn1c(CN2C(=O)c3cccc4cccc(c34)C2=O)nnc1SCC(=O)OCC` is reported as 93.5%.
For `O=S(=O)(c1ccc2c(c1)OCCO2)n1cnc2ccccc21`, the remaining compound was 0.195%.
`Cc1c(-c2nnc(Cc3ccccc3)o2)nnn1-c1ccc(C(C)C)cc1` gave a remaining compound of 75.1%.
